Experimental data of several laboratories.
Lines come from different studies, so protocols differ. pIC50, pKi: −log10 of the molar value.
CTSL: Procathepsin L (CTSL, Homo sapiens, UniProt P07711)
Sequence of UniProt P07711 (whole entry, looked up): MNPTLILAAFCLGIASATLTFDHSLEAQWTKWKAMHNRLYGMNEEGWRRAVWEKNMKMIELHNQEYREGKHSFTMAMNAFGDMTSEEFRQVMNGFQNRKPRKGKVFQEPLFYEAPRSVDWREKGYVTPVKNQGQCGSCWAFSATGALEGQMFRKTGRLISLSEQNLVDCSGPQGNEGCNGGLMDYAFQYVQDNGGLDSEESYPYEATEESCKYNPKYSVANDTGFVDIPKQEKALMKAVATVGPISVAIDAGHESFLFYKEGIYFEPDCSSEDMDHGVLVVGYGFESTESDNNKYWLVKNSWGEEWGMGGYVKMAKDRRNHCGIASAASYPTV
DRD3: D(3) dopamine receptor (DRD3, Homo sapiens, UniProt P35462)
Sequence of UniProt P35462 (whole entry, looked up): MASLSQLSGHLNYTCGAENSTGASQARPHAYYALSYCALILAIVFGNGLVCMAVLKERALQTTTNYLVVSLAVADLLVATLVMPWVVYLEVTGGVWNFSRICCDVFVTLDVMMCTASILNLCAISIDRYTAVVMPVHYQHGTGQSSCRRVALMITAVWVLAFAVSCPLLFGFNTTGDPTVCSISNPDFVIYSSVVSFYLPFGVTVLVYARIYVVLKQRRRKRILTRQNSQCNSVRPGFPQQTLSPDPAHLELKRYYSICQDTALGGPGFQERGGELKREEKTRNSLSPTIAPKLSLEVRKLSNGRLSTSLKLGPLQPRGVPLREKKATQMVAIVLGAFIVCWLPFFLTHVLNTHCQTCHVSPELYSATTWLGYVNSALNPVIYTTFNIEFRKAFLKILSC
Sequence of UniProt P49840 (whole entry, looked up): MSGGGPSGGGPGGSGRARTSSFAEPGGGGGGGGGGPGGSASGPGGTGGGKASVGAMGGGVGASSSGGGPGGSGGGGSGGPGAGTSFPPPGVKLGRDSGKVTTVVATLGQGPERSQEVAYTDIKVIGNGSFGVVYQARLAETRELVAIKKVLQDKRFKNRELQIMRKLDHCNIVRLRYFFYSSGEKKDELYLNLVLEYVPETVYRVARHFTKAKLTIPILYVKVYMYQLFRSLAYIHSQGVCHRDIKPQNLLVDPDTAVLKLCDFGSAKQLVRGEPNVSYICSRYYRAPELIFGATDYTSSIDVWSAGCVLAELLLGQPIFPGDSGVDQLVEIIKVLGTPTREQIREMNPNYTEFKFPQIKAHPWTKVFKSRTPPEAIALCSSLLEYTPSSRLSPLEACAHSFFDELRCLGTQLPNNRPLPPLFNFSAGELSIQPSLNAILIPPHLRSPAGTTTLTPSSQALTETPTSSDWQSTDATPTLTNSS
Sequence of UniProt P10721 (whole entry, unmodified, looked up): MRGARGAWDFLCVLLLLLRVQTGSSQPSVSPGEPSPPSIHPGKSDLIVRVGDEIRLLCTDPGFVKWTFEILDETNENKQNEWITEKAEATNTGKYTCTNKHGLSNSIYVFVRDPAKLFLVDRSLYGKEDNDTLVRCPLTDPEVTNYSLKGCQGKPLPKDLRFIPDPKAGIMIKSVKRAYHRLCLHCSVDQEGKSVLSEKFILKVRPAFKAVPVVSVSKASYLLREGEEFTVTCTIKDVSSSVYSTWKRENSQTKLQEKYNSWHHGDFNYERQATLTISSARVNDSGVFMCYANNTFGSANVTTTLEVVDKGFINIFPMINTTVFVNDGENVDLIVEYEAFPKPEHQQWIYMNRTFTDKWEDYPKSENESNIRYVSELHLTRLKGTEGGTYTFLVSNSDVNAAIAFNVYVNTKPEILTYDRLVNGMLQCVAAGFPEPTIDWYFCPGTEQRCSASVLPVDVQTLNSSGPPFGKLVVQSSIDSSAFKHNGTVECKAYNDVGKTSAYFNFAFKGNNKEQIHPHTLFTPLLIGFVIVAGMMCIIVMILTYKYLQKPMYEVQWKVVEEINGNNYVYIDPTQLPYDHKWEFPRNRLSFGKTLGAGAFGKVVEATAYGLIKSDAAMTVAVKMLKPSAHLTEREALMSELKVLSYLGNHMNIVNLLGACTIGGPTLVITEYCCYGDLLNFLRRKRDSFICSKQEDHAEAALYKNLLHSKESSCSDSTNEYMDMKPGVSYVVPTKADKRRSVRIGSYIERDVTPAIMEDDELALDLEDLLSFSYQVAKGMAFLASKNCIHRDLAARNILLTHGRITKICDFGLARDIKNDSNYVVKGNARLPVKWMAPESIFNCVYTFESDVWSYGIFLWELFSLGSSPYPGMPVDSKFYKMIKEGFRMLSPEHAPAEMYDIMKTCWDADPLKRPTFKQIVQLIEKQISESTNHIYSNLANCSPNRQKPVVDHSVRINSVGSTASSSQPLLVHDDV
Sequence of UniProt Q99558 (whole entry, looked up): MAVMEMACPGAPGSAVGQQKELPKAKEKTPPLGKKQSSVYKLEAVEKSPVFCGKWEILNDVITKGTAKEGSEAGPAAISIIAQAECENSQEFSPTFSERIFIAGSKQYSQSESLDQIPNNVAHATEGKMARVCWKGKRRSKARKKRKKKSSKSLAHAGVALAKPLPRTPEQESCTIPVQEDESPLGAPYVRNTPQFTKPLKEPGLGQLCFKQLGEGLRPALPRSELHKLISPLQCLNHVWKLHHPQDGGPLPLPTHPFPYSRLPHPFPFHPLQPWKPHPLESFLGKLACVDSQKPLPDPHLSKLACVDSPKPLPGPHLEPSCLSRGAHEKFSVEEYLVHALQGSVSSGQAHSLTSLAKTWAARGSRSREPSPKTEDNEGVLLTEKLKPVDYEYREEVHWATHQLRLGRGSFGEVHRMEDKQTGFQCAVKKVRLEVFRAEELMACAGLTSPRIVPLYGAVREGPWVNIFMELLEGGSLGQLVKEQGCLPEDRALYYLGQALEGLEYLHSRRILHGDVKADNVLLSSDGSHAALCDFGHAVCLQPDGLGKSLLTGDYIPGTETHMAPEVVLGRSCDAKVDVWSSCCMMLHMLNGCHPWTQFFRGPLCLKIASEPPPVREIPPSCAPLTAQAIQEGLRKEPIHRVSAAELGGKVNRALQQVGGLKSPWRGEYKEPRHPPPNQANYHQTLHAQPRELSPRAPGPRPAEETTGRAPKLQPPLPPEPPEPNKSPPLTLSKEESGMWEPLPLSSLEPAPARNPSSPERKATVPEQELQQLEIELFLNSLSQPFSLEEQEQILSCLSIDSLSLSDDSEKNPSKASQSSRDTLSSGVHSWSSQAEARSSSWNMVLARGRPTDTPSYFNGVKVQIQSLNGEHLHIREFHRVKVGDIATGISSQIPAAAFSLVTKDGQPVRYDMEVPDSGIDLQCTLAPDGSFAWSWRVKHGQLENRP
Sequence of UniProt P08069 (whole entry, looked up): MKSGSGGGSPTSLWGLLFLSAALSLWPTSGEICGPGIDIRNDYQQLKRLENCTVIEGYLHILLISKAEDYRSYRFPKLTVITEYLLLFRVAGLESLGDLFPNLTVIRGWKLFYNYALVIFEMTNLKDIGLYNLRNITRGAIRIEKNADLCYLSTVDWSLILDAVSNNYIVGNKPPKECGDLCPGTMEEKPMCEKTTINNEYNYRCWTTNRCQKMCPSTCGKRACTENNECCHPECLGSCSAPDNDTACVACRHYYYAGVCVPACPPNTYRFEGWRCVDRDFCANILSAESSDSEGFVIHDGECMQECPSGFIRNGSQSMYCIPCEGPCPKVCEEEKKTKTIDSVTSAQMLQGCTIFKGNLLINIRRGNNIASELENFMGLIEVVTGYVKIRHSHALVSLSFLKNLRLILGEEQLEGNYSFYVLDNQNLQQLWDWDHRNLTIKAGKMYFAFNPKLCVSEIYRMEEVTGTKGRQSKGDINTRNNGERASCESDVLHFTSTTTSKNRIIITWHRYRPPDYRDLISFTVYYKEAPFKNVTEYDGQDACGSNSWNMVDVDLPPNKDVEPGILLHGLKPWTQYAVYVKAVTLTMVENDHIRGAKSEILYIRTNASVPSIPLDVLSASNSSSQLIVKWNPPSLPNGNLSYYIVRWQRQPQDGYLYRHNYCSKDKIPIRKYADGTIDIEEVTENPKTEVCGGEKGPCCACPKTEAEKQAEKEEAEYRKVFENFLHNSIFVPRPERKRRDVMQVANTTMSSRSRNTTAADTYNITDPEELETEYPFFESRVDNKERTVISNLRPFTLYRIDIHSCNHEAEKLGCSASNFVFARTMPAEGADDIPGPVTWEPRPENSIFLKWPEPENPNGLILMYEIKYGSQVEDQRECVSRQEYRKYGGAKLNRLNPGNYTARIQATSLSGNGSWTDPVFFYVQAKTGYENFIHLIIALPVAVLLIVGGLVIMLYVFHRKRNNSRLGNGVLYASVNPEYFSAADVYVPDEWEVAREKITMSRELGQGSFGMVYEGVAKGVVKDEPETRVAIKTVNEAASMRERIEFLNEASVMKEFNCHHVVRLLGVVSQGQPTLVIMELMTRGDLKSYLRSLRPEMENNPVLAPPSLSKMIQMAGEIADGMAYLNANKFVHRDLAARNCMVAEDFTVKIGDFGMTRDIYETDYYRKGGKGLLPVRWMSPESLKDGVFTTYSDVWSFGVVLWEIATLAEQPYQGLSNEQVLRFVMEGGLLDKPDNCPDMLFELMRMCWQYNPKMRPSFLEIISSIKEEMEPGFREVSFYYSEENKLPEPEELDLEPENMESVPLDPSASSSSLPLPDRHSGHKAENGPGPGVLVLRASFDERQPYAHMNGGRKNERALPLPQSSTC
Sequence of UniProt Q00535 (whole entry, looked up): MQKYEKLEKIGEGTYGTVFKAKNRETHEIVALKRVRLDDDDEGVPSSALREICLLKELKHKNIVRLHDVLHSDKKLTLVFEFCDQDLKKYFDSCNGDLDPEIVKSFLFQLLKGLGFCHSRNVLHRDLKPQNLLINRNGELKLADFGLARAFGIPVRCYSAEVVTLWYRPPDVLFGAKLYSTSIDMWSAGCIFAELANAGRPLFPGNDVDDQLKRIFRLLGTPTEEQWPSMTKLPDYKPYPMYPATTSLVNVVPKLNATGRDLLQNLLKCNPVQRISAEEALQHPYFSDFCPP

CN(CCCC(F)(F)F)c1nccc(-c2cnn3ncccc23)n1 — remaining signal (Cyclin-dependent kinase 2 homolog (CRK2, Plasmodium falciparum, UniProt P61075); cell-free assay; 1 µM): 100%
COc1cccc(OS(=O)(=O)Oc2cccc(C(=O)NO)c2)c1 — pKi (Protein deacetylase HDAC6 (HDAC6, Homo sapiens, UniProt Q9UBN7); enzyme activity, inhibitor, fluorescence): 7.39
O=C1c2cccc(O)c2C(=O)c2c(O)cc(CO)cc21 — remaining activity (CTSL; enzyme activity, inhibitor; 100 µM): 69.4%
COc1cc(-c2cc(C(C)=O)n3ccccc23)cc(OC)c1C(=O)N(C)C — ΔTm (Bromodomain-containing protein 9 (BRD9, Homo sapiens, UniProt Q9H8M2); thermal stability, DSF; 200 µM): 14 °C
CC(=O)OC[C@H](Cc1ccccc1)NC(=O)[C@H](Cc1ccccc1)NC(=O)c1ccccc1 — remaining activity (CTSL; enzyme activity, inhibitor; 100 µM): 89%
Cc1cc([C@@H](C)Nc2ccccc2C(=O)O)c2nc(N3CCC(F)(F)CC3)c(C#N)c(=O)n2c1 — remaining binding (Insulin-like growth factor 1 receptor (IGF1R, Homo sapiens, UniProt P08069); binding, competition with immobilised ligand; 1 µM): 100%
CC(C)c1ccc(OS(=O)(=O)Oc2cccc(C(=O)NO)c2)cc1 — pIC50 (Histone deacetylase 8 (HDAC8, Homo sapiens, UniProt Q9BY41); enzyme activity, inhibitor, fluorescence): 5.90
CCCCC(=O)Nc1ccc(-c2ccc3ncn(CCC)c(=O)c3c2)cn1 — remaining binding (Mitogen-activated protein kinase kinase kinase 14 (MAP3K14, Homo sapiens, UniProt Q99558); binding, competition with immobilised ligand; 0.5 µM): 100%
O=C1NCCc2[nH]cc(S(=O)(=O)Nc3ccc(C(F)(F)F)c(Cl)c3)c21 — Emax (DRD3; β-arrestin recruitment, agonist; 90 min): 106%
CC[C@H](C)[C@H](NC(=O)[C@H](CCC(N)=O)NC(=O)[C@H](CC(C)C)NC(=O)[C@H](CCSC)NC(=O)[C@H](CCCCN)NC(=O)[C@H](CO)NC(=O)[C@H](CO)NC(=O)[C@H](CCSC)NC(=O)[C@H](CC(C)C)NC(=O)[C@H](CC(N)=O)NC(=O)[C@@H](NC(=O)[C@@H](NC(=O)[C@H](CO)NC(=O)[C@H](CC(C)C)NC(=O)[C@H](CS)NC(=O)[C@H](CCCNC(=N)N)NC(=O)[C@H](CC(=O)O)NC(=O)[C@H](Cc1c[nH]c2ccccc12)NC(=O)[C@H](Cc1ccccc1)NC(=O)[C@H](C)NC(=O)[C@H](CCC(=O)O)NC(=O)[C@@H](N)CCCCN)C(C)C)[C@@H](C)CC)C(=O)N[C@@H](CC(N)=O)C(=O)N[C@@H](C)C(=O)O — remaining activity (Cyclin-dependent kinase 5, with p35 (CDK5, Homo sapiens, UniProt Q00535); enzyme activity, inhibitor, radiometric; 250 µM, 20 min): 47%
O=C1CC(c2ccccc2)Oc2cc(O)cc(O)c21 (centres unmarked) — remaining activity (CTSL; enzyme activity, inhibitor; 100 µM): 60.2%
Nc1ncnc2occ(-c3ccc(NC(=O)Nc4cc(C(F)(F)F)ccc4F)cc3)c12 — remaining signal (Tyrosine-protein kinase ABL1, phosphorylated (ABL1, Homo sapiens, UniProt P00519, H396P); cell-free assay, inhibitor; 20 µM): 0.4%
Cc1ccc(N(O)N=Nc2ccc(S(=O)(=O)Nc3cc(C)on3)cc2)cc1 — inhibition (ABTS scavenging; 60 µg/mL): 27.7%
Cc1[nH]c(C)c(S(=O)(=O)Nc2ccc(C(F)(F)F)c(Cl)c2)c1C(=O)N1CC[C@@H](F)C1 — Emax (DRD3; β-arrestin recruitment, agonist; 90 min): 97%
COc1cc(-c2cncc3c2CN(C)Cc2cc(N4CCNCC4)ccc2-3)cc(OC)c1OC — remaining activity (Mitogen-activated protein kinase kinase kinase kinase 4 (MAP4K4, Homo sapiens, UniProt O95819); enzyme activity, inhibitor; 1 µM): 75%
CNc1ncc2c(/C=C/C(=O)N3CCC(OC)CC3)nn(Cc3cccc(C(F)(F)F)c3)c2n1 — remaining activity (Glycogen synthase kinase-3 alpha (GSK3A, Homo sapiens, UniProt P49840); enzyme activity, inhibitor, radiometric; 1 µM): 106%
O=CCc1ccccc1 — remaining activity (CTSL; enzyme activity, inhibitor; 100 µM): 6.73%
C1=C/COCc2cc(ccc2OCCN2CCCC2)Nc2nccc(n2)-c2cccc(c2)COC/1 — remaining binding (Ephrin type-B receptor 4 (EPHB4, Homo sapiens, UniProt P54760); binding; 0.1 µM): 100%
CC(C)CC(=O)N[C@H](C(=O)N[C@H](C(=O)N[C@@H](CC(C)C)[C@@H](O)CC(=O)N[C@@H](C)C(=O)N[C@@H](CC(C)C)[C@@H](O)CC(=O)O)C(C)C)C(C)C — remaining activity (CTSL; enzyme activity, inhibitor; 100 µM): 91.8%
C=CC(=O)N1CCC(COCC(=O)N2CCN(c3nc(-c4cnc(N)nc4C(F)F)nc(N4CCOC[C@@H]4C)n3)CC2)CC1 — remaining binding (Mast/stem cell growth factor receptor Kit (KIT, Homo sapiens, UniProt P10721, A829P); binding, competition with immobilised ligand; 1 µM): 63%
O=c1c2ccccc2[nH]c2ccccc12 — remaining activity (CTSL; enzyme activity, inhibitor; 100 µM): 145%
CCCN(O)N=Nc1ccc(S(=O)(=O)Nc2nccs2)cc1 — inhibition (ABTS scavenging; 60 µg/mL): 38.4%
CC(=NNC(N)=S)c1ccc(Nc2nnc(-c3ccc(Cl)cc3)c3ccccc23)cc1 — cell death (MCF7; cell growth or viability, MTT; 5 µM): 90.9%
